Experimental data pooled from the literature.
“And” joins repeats or separate records; there may be more than shown. ± marks the error that the study gave.

C[C@@H](NC(=O)N1C(=O)[C@H](Cc2ccnc(N)c2)[C@H]1C(=O)O)C1CCCCC1 — drug-related abnormal liver function (healthy adult Chinese volunteers; continuous intravenous infusion, 0.3 mg/kg/h, 5-day infusion, CTCAE 5.0 grading): 12.5%
CCc1ccc(CC/C=C/c2ccc3c(c2)C(=O)CC3)cc1 — Basophil percentage (Sprague-Dawley rat, female; oral, 120 mg/kg/day, 14 days): 0.27%
C[C@]1(CO)Cc2ncn(-c3ccc(C#N)c(Cl)c3)c2C(=O)O1 — subjects with drug-related hyperhidrosis (human; 10 mg multiple doses, fasted): 0%
CO[C@H]1C[C@@H]2CC[C@@H](C)[C@@](O)(O2)C(=O)C(=O)N2CCCC[C@H]2C(=O)O[C@H]([C@H](C)C[C@@H]2CC[C@@H](OC(=O)NCCOCCOCCOCCOCCOCCOCCOCCOCCC(=O)N3CCc4cc(Cn5nc(-c6ccc7oc(N)nc7c6)c6c(N)ncnc65)ccc4C3)[C@H](OC)C2)C[C@@H](O)[C@H](C)/C=C(\C)[C@@H](O)[C@@H](OC)C(=O)[C@H](C)C[C@H](C)/C=C/C=C/C=C/1C — incidence of Diarrhea TRAE (patients with advanced solid tumours; intravenous, 1.6 mg/3 mg weekly, grade ≥3): 0%
O=C(Nc1ccccc1)C1CCN(C(=O)Oc2cccnc2)CC1 — subjects with disturbance in attention (adverse event reporting; healthy women; oral, 20 mg, 7 days): 7.1%
Clc1ccc(-c2ccccc2)cc1 — blood urea nitrogen (female Sprague-Dawley rats, serum; inhalation, 23 µg/rat, 0 h after exposure): 15 ± 4 mg/dL
COc1cccc(Oc2ccccc2NC(=O)CNC(=O)c2cccc3ccccc23)c1 — monocytes (esterase-deficient SCID mice, male, blood; oral, 15 mg/kg/day, 14 days, toxicity study; relative to: white cells): 6.4% and 3% and 4%
O=C(O)CCCOc1ccc(F)cc1-c1cc(-c2ccccc2C(F)(F)F)n(-c2ccccc2)n1 — blood chemistry (refers to: UN; Crl:CD(SD) rats, male, blood; iv, 25 µg/kg, 14 days): 16.3 ± 2.8 mg/dL
COc1cc2c(Oc3ccc4[nH]c(C)cc4c3F)ccnc2cc1OCC1(N)CC1 — grade 3 Nausea (paediatric recurrent refractory sarcoma; concentration not given, whole group): 0%
O=C(O)CCC(CP(=O)(O)O)C(=O)O (stereo not shown) — measured concentration (rat, processed derivatized plasma; 4 µg/mL, 18 h, 10 °C, autosampler stability): 4.27 ± 0.048 µg/mL
N[C@@H]1c2ccccc2OC12CCN(c1cnc3c(N4CCCc5ncccc54)n[nH]c3n1)CC2 — incidence grade ≥3 TEAE (patients advanced metastatic solid tumours; oral, 60 mg once daily, pooled RP2D cohorts): 56%
CCN1CCN(Cc2ccc(Nc3ncc(F)c(-c4cc(F)c5nc6n(c5c4)[C@H](C)CCC6)n3)nc2)CC1 — dose reduction for haematologic toxicity (Phase Ia dose escalation; patients with advanced solid tumours; dose not given, monotherapy; relative to: patients): 8.3%
Brc1ccc(Oc2cc(Br)c(Br)cc2Br)c(Br)c1 — dose fraction in milk fat (whole cow milk; 200 nM nominal): 82.5%

For quick reference, copied from above:
N[C@@H]1c2ccccc2OC12CCN(c1cnc3c(N4CCCc5ncccc54)n[nH]c3n1)CC2 — incidence grade ≥3 TEAE (patients advanced metastatic solid tumours; oral, 60 mg once daily, pooled RP2D cohorts): 56%
